Results pooled from the literature.
Protocols differ between the studies behind these lines. ± gives the spread as reported.

| Structure (SMILES) | test | system | setting | quantity | value |
| --- | --- | --- | --- | --- | --- |
| COC(=O)C[C@](O)(CCCC(C)(C)OC(C)=O)C(=O)O[C@@H]1C(OC)=C[C@]23CCCN2CCc2cc4c(cc2[C@H]13)OCO4 |  | CD1 mouse, spleen | oral, 1 mg/kg, 8 h | tissue concentration | 9.22 ng/mL |
| CC(C)C[C@H](NC(=O)[C@H](CCCCN)NC(=O)[C@H](CCC(=O)O)NC(=O)[C@H](C)NC(=O)[C@@H](NC(=O)[C@H](CCCCN)NC(=O)[C@H](CC(=O)O)NC(=O)[C@H](Cc1ccc(O)cc1)NC(=O)[C@H](Cc1ccccc1)NC(=O)[C@H](C)NC(=O)[C@H](CCCCN)NC(=O)[C@H](CC(C)C)NC(=O)[C@H](Cc1c[nH]c2ccccc12)NC(=O)[C@@H](N)CC(=O)O)C(C)C)C(=O)N[C@@H](CCCCN)C(=O)N[C@@H](CCC(=O)O)C(=O)N[C@@H](C)C(=O)N[C@@H](Cc1ccccc1)C(=O)N1CCC[C@H]1C(=O)N[C@@H](CC(=O)O)C(=O)N[C@@H](Cc1c[nH]c2ccccc12)C(=O)N[C@@H](C)C(=O)N[C@@H](CCCCN)C(=O)N[C@@H](C)C(=O)N[C@@H](C)C(=O)N[C@@H](Cc1ccc(O)cc1)C(=O)N[C@@H](CC(=O)O)C(=O)N[C@@H](CCCCN)C(=O)N[C@@H](C)C(=O)N[C@@H](C)C(=O)N[C@@H](CCC(=O)O)C(=O)N[C@@H](CCCCN)C(=O)N[C@@H](C)C(=O)N[C@@H](CCCCN)C(=O)N[C@@H](CCC(=O)O)C(=O)N[C@@H](C)C(=O)N[C@@H](C)C(=O)O |  | cynomolgus monkey female, plasma | intravenous infusion, 75 mg/kg every other day, day 27 | AUC(0-inf) | 7650 µg·h/mL |
| C[C@@H](O)[C@H](NC(=O)[C@H](CCC(=O)O)NC(=O)[C@H](Cc1ccccc1)NC(=O)[C@H](Cc1c[nH]c2ccccc12)NC(=O)[C@H](CCCCN)NC(=O)[C@H](CCCCN)NC(=O)[C@H](CCCCN)NC(=S)Nc1ccc2c(c1)C(=O)OC21c2ccc(O)cc2Oc2cc(O)ccc21)C(=O)N[C@@H](Cc1c[nH]c2ccccc12)C(=O)N[C@@H](Cc1ccccc1)C(=O)N[C@H](C(=O)N[C@@H](CCC(=O)O)C(=O)N[C@@H](Cc1c[nH]c2ccccc12)C(=O)N1CCC[C@H]1C(=O)N[C@@H](CCCCN)C(=O)N[C@@H](CCCCN)C(=O)N[C@@H](CCCCN)C(=O)N[C@@H](CCCCN)C(=O)O)[C@@H](C)O | SDS-PAGE | human corneal epithelial lysate | concentration not given, 24 h | stability | stable |
| N=C(N)NCc1ccc(C(=O)NCCCC[C@H](NC(=O)N[C@@H](CCC(=O)O)C(=O)O)C(=O)O)cc1[131I] |  | SCID mouse, PC-3 xenografts, lungs | 1 h | tissue uptake | 2.43 ± 0.38 %ID/g |
| CCC(CC)OC1C=C(C(=O)OC(C)OC(=O)C(N)C(C)C)CC(NC(=N)N)C1NC(C)=O (mixture of isomers) |  | mouse (fed), plasma | oral, 10 mg/kg | Cmax | 405 ± 297 ng/mL |
| CN1C(=O)C2(Cc3ccc(CC45SSC(CO)(C(=O)N4C)N(C)C5=O)cc3)SSC1(CO)C(=O)N2C (racemic) | LC-MS | solution | concentration not given, with: DTT 100 µM | reduced fraction | > 90% |
| CSCC[C@@H]1NC(=O)[C@@H]2CSSC[C@H](NC(=O)[C@H](CO)NC(=O)[C@H](C)N)C(=O)N[C@@H](CCCNC(=N)N)C(=O)N[C@@H]([C@@H](C)O)C(=O)N3CCC[C@H]3C(=O)N[C@@H](CCCCN)C(=O)N[C@@H](CC(=O)O)C(=O)N[C@H]3CSSC[C@H](NC(=O)[C@H](CCCCN)NC(=O)[C@H](CCCNC(=N)N)NC(=O)[C@H](CC(N)=O)NC1=O)C(=O)N[C@@H](CCCCN)C(=O)N[C@H]1CSSC[C@H](NC(=O)[C@@H]4CCCN4C(=O)[C@H](CC(=O)O)NC(=O)[C@H](C)NC3=O)C(=O)N[C@@H](C)C(=O)N[C@@H](CCCCN)C(=O)N[C@@H](CCC(=O)O)C(=O)N[C@@H]([C@@H](C)O)C(=O)NCC(=O)N[C@@H](CSSC[C@@H](C(N)=O)NC(=O)[C@H](CCCNC(=N)N)NC(=O)[C@H](CC(N)=O)NC1=O)C(=O)N1CCC[C@H]1C(=O)N[C@@H](Cc1ccc(O)cc1)C(=O)NCC(=O)N[C@@H](CCCCN)C(=O)N2 |  | DA rat, pristane-induced arthritis, serum | subcutaneous, 0.1 mg/kg once weekly, end of 21-day trial | LDH | 480 U/L |
| CC1=CC(C)(C)N=C2C=CC(=O)C=C12 | general toxicity | mouse | oral | MTD | 425 mg/kg |
| CC[C@@H]1C[C@]1(NC(=O)[C@@H]1C[C@@]2(CN1C(=O)[C@@H](NC(=O)[C@@H](NC(=O)[C@@H]1CCCCN1C(C)C)C1CCCCC1)C(C)(C)C)C(C)(C)C21CCC1)C(=O)NS(=O)(=O)N1CCCC1 | item: vomiting | human fed | oral, 100 mg single dose | subjects with adverse event | 0% |
| CC[C@H](C)[C@H](NC(=O)CNC(=O)[C@H](Cc1ccccc1)NC(=O)[C@H](CCCCN)NC(=O)[C@H](CCCCN)NC(=O)[C@H](CCCNC(=N)N)NC(=O)[C@H](CCCNC(=N)N)NC(=O)[C@H](CCCNC(=N)N)NC(=O)[C@H](CCC(N)=O)NC(=O)[C@H](CCCNC(=N)N)NC(=O)[C@H](CCCNC(=N)N)NC(=O)[C@H](CCCCN)NC(=O)[C@H](CCCCN)NC(=O)[C@H](CCCNC(=N)N)NC(=O)CNC(=O)[C@@H](N)Cc1ccc(O)cc1)C(=O)N[C@H](C(=O)N[C@@H](CC(N)=O)C(=O)N[C@@H](CO)C(=O)N[C@@H](CCC(N)=O)C(=O)N[C@@H](CC(C)C)C(=O)N[C@@H](CCCCN)C(=O)N1CCC[C@H]1C(=O)O)[C@@H](C)O | derivative UV-vis spectrophotometry | DMPC:Chol:SM large unilamellar vesicles vs PBS | 30 min, pH 7.4, 37 °C, lipid ratio 75:15:10 | partition coefficient Kp | 4970 ± 1440 |

A few entries again:
| Structure (SMILES) | test | system | setting | quantity | value |
| --- | --- | --- | --- | --- | --- |
| C[C@@H](O)[C@H](NC(=O)[C@H](CCC(=O)O)NC(=O)[C@H](Cc1ccccc1)NC(=O)[C@H](Cc1c[nH]c2ccccc12)NC(=O)[C@H](CCCCN)NC(=O)[C@H](CCCCN)NC(=O)[C@H](CCCCN)NC(=S)Nc1ccc2c(c1)C(=O)OC21c2ccc(O)cc2Oc2cc(O)ccc21)C(=O)N[C@@H](Cc1c[nH]c2ccccc12)C(=O)N[C@@H](Cc1ccccc1)C(=O)N[C@H](C(=O)N[C@@H](CCC(=O)O)C(=O)N[C@@H](Cc1c[nH]c2ccccc12)C(=O)N1CCC[C@H]1C(=O)N[C@@H](CCCCN)C(=O)N[C@@H](CCCCN)C(=O)N[C@@H](CCCCN)C(=O)N[C@@H](CCCCN)C(=O)O)[C@@H](C)O | SDS-PAGE | human corneal epithelial lysate | concentration not given, 24 h | stability | stable |
| CC(C)C[C@H](NC(=O)[C@H](CCCCN)NC(=O)[C@H](CCC(=O)O)NC(=O)[C@H](C)NC(=O)[C@@H](NC(=O)[C@H](CCCCN)NC(=O)[C@H](CC(=O)O)NC(=O)[C@H](Cc1ccc(O)cc1)NC(=O)[C@H](Cc1ccccc1)NC(=O)[C@H](C)NC(=O)[C@H](CCCCN)NC(=O)[C@H](CC(C)C)NC(=O)[C@H](Cc1c[nH]c2ccccc12)NC(=O)[C@@H](N)CC(=O)O)C(C)C)C(=O)N[C@@H](CCCCN)C(=O)N[C@@H](CCC(=O)O)C(=O)N[C@@H](C)C(=O)N[C@@H](Cc1ccccc1)C(=O)N1CCC[C@H]1C(=O)N[C@@H](CC(=O)O)C(=O)N[C@@H](Cc1c[nH]c2ccccc12)C(=O)N[C@@H](C)C(=O)N[C@@H](CCCCN)C(=O)N[C@@H](C)C(=O)N[C@@H](C)C(=O)N[C@@H](Cc1ccc(O)cc1)C(=O)N[C@@H](CC(=O)O)C(=O)N[C@@H](CCCCN)C(=O)N[C@@H](C)C(=O)N[C@@H](C)C(=O)N[C@@H](CCC(=O)O)C(=O)N[C@@H](CCCCN)C(=O)N[C@@H](C)C(=O)N[C@@H](CCCCN)C(=O)N[C@@H](CCC(=O)O)C(=O)N[C@@H](C)C(=O)N[C@@H](C)C(=O)O |  | cynomolgus monkey female, plasma | intravenous infusion, 75 mg/kg every other day, day 27 | AUC(0-inf) | 7650 µg·h/mL |
